Measurements collected from several papers.
Each line is one published result; not all experiments were run side by side.
Organism: Staphylococcus aureus

SMILES	test	system	conditions	MIC
CC[C@H](C)[C@H](NC(=O)[C@H](CCCCN)NC(=O)[C@H](CCCCN)NC(=O)[C@H](Cc1ccccc1)NC(=O)[C@@H](NC(=O)[C@@H](NC(=O)[C@H](CCCNC(=N)N)NC(=O)[C@H](Cc1ccccc1)NC(=O)[C@@H](NC(=O)[C@H](CCCCN)NC(=O)[C@H](CCCCN)NC(=O)[C@@H](N)CCSC)[C@@H](C)CC)C(C)C)[C@@H](C)CC)C(=O)N[C@@H](CC(C)C)C(=O)N[C@@H](CCCCN)C(=O)N[C@@H](CCCNC(=N)N)C(=O)N[C@@H](CC(C)C)C(=O)N[C@H](C(=O)N[C@H](C(=O)O)C(C)C)[C@@H](C)CC	broth microdilution	GU-1 MRSA	added: 2 mM CaCl2	8 µg/mL
CC[C@H](C)[C@H](NC(=O)[C@H](CC(C)C)NC(=O)[C@H](CCCNC(=N)N)NC(=O)[C@@H](N)CCCNC(=N)N)C(=O)N[C@@H](CCCNC(=N)N)C(=O)N[C@@H](CCCCN)C(=O)N[C@@H](CC(C)C)C(=O)N[C@@H](CCCCN)C(=O)NCC(=O)N1CCC[C@H]1C(=O)N[C@H](C(=O)N[C@H](C(=O)N[C@@H](Cc1ccc(O)cc1)C(=O)N[C@@H](CC(C)C)C(=O)N[C@@H](Cc1ccc(O)cc1)C(=O)N[C@@H](Cc1ccccc1)C(=O)N[C@@H](CCCCN)C(=O)N[C@@H](CC(C)C)C(=O)N[C@@H](CCC(N)=O)C(=O)N[C@@H](CC(C)C)C(=O)N[C@@H](CC(C)C)C(=O)N[C@@H](CCCCN)C(=O)N[C@@H](CCCCN)C(N)=O)[C@@H](C)CC)[C@@H](C)CC		CCARM 3095, methicillin-resistant, Mueller-Hinton broth	24 h	64 µM
CCCCCCCCCCCC[N+](C)(C)Cc1ccccc1.[Br-]		MRSA ATCC 33591	dark and light identical	> 640 µM
CC[C@H](C)[C@H](N)C(=O)N[C@@H](CC(C)C)C(=O)NCC(=O)N[C@H](CCCNC(=N)N)C(=O)N[C@H](C(=O)N[C@H](C(=O)N[C@@H](CCCCN)C(=O)NCC(=O)N[C@H](C(=O)N[C@@H](CCCCN)C(=O)N[C@@H](CC(=O)O)C(=O)N[C@H](C(=O)N[C@@H](CC(C)C)C(N)=O)[C@@H](C)CC)[C@@H](C)CC)C(C)C)[C@@H](C)CC	broth microdilution	ATCC 25923, Mueller-Hinton broth	16 h, 37 °C	50 µM
CC(C)C[C@@H](NC(=O)CNC(=O)[C@@H](CCCCN)NC(=O)[C@@H](CC(C)C)NC(=O)[C@@H](CCCCN)NC(=O)[C@@H](CCCNC(=N)N)NC(=O)[C@@H](CC(C)C)NC(=O)[C@@H](CC(C)C)NC(=O)[C@@H](CCCNC(=N)N)NC(=O)[C@H](N)CCCNC(=N)N)C(=O)N[C@H](CCCCN)C(=O)N[C@H](CCCCN)C(=O)N[C@H](Cc1ccc(O)cc1)C(=O)N[C@H](CC(C)C)C(=O)N[C@H](Cc1ccc(O)cc1)C(=O)N[C@H](Cc1ccccc1)C(=O)N[C@H](CCCCN)C(=O)N[C@H](CC(C)C)C(=O)N[C@H](CCC(N)=O)C(=O)N[C@H](CC(C)C)C(=O)N[C@H](CC(C)C)C(=O)N[C@H](CCCCN)C(=O)N[C@H](CCCCN)C(N)=O		KCTC 1621, Mueller-Hinton broth	added: 1 mM MgCl2	8 µM
CC(C)C[C@H](NC(=O)[C@@H](NC(=O)[C@H](CCCNC(=N)N)NC(=O)[C@H](CCC(N)=O)NC(=O)[C@H](Cc1ccccc1)NC(=O)[C@H](Cc1ccc(O)cc1)NC(=O)[C@H](CC(N)=O)NC(=O)[C@H](Cc1c[nH]c2ccccc12)NC(=O)[C@@H](NC(=O)[C@H](CCCNC(=N)N)NC(=O)[C@H](CCCCN)NC(=O)[C@@H](N)Cc1ccccc1)C(C)C)C(C)C)C(=O)N[C@H](C(=O)N[C@@H](CCCCN)C(=O)N[C@@H](CCCCN)C(=O)N[C@@H](Cc1ccc(O)cc1)C(=O)N[C@@H](C)C(N)=O)C(C)C	broth dilution	ATCC 25923, Mueller-Hinton broth	24 h, 37 °C	200 µM
CC[C@H](C)[C@H](NC(=O)[C@H](CCCCN)NC(=O)[C@H](CCCCN)NC(=O)CNC(=O)[C@H](CCCCN)NC(=O)[C@H](CC(C)C)NC(=O)[C@H](CCCCN)NC(=O)[C@H](CCCNC(=N)N)NC(=O)[C@@H](NC(=O)[C@H](CC(C)C)NC(=O)[C@H](CCCNC(=N)N)NC(=O)[C@@H](N)CCCNC(=N)N)[C@@H](C)CC)C(=O)N[C@@H](Cc1ccc(O)cc1)C(=O)N[C@@H](CC(C)C)C(=O)N[C@@H](Cc1ccc(O)cc1)C(=O)N[C@@H](Cc1ccccc1)C(=O)N[C@@H](CCCCN)C(=O)N[C@@H](CC(C)C)C(=O)N[C@@H](CCC(N)=O)C(=O)N[C@@H](CC(C)C)C(=O)N[C@@H](CC(C)C)C(=O)N[C@@H](CCCCN)C(=O)N[C@@H](CCCCN)C(N)=O		CCARM 3095, methicillin-resistant, Mueller-Hinton broth	24 h	8 µM
COc1ccnc(NC(=S)N2CCN(c3ncc(C(F)(F)F)cc3Cl)CC2)c1		MRSA USA300-18807, clinical		1.9 µM
C[C@@H](O)[C@H](NC(=O)[C@H](Cc1c[nH]c2ccccc12)NC(=O)[C@H](Cc1c[nH]c2ccccc12)NC(=O)[C@H](Cc1c[nH]c2ccccc12)NC(=O)[C@@H](NC(=O)[C@H](Cc1c[nH]c2ccccc12)NC(=O)[C@H](CCCNC(=N)N)NC(=O)[C@@H](N)CCCNC(=N)N)[C@@H](C)O)C(=O)N[C@@H](Cc1c[nH]c2ccccc12)C(=O)N[C@@H](CCCNC(=N)N)C(=O)N[C@@H](CCCNC(=N)N)C(N)=O		MRSA 43300	24 h, 37 °C	4 µM
CC[C@H](C)[C@H](NC(=O)[C@H](CCCCN)NC(=O)[C@H](CC(=O)O)NC(=O)[C@H](CC(C)C)NC(=O)[C@@H](NC(=O)[C@H](CC(N)=O)NC(=O)[C@H](CC(C)C)NC(=O)[C@@H](NC(=O)[C@H](Cc1ccccc1)NC(=O)[C@H](CCCCN)NC(=O)[C@H](CCCCN)NC(=O)CNC(=O)[C@H](C)NC(=O)[C@H](CC(N)=O)NC(=O)[C@H](CCCCN)NC(=O)[C@H](Cc1ccccc1)NC(=O)[C@H](CC(N)=O)NC(=O)[C@H](CCC(=O)O)NC(=O)[C@H](Cc1c[nH]c2ccccc12)NC(=O)[C@H](CC(C)C)NC(=O)[C@@H](N)CO)[C@@H](C)CC)[C@@H](C)CC)C(=O)N[C@@H](CCCNC(=N)N)C(N)=O		ATCC 6538	overnight, 37 °C, added: 2 mM CaCl2	2 µM
c1ccc(CCOC2CCCc3c2[nH]c2ccccc32)cc1 (stereo not drawn)	broth microdilution	SG511 daptomycin-resistant		> 16 µg/mL
Nc1nc(/C(=N/O)C(=O)N[C@@H]2C(=O)N3C(C(=O)O)=C(/C=C4\CCN([C@@H]5CCNC5)C4=O)CS[C@H]23)ns1		CRB, PBP4 deletion		0.25 µg/mL

Excerpt of the above:
SMILES	test	system	conditions	MIC
C[C@@H](O)[C@H](NC(=O)[C@H](Cc1c[nH]c2ccccc12)NC(=O)[C@H](Cc1c[nH]c2ccccc12)NC(=O)[C@H](Cc1c[nH]c2ccccc12)NC(=O)[C@@H](NC(=O)[C@H](Cc1c[nH]c2ccccc12)NC(=O)[C@H](CCCNC(=N)N)NC(=O)[C@@H](N)CCCNC(=N)N)[C@@H](C)O)C(=O)N[C@@H](Cc1c[nH]c2ccccc12)C(=O)N[C@@H](CCCNC(=N)N)C(=O)N[C@@H](CCCNC(=N)N)C(N)=O		MRSA 43300	24 h, 37 °C	4 µM
CC[C@H](C)[C@H](NC(=O)[C@H](CCCCN)NC(=O)[C@H](CC(=O)O)NC(=O)[C@H](CC(C)C)NC(=O)[C@@H](NC(=O)[C@H](CC(N)=O)NC(=O)[C@H](CC(C)C)NC(=O)[C@@H](NC(=O)[C@H](Cc1ccccc1)NC(=O)[C@H](CCCCN)NC(=O)[C@H](CCCCN)NC(=O)CNC(=O)[C@H](C)NC(=O)[C@H](CC(N)=O)NC(=O)[C@H](CCCCN)NC(=O)[C@H](Cc1ccccc1)NC(=O)[C@H](CC(N)=O)NC(=O)[C@H](CCC(=O)O)NC(=O)[C@H](Cc1c[nH]c2ccccc12)NC(=O)[C@H](CC(C)C)NC(=O)[C@@H](N)CO)[C@@H](C)CC)[C@@H](C)CC)C(=O)N[C@@H](CCCNC(=N)N)C(N)=O		ATCC 6538	overnight, 37 °C, added: 2 mM CaCl2	2 µM
